Results collected from several papers.
Compare with care: the assays were run in different laboratories. Several values in a cell are separate wells, animals, samples, runs or records.
Target: 5-hydroxytryptamine receptor 2B (HTR2B, Homo sapiens, UniProt P41595)

With `O=C1c2ccccc2CCCN1CCCCN1CCN(c2cccc(Cl)c2Cl)CC1` the inhibition was 85.3% (radioligand binding; concentration not given, added: [3H]LSD).
The inhibition of `CN[C@@H]1[C@H](O)[C@H](NC)[C@H]2O[C@]3(O)[C@H](O[C@@H]2[C@H]1O)O[C@H](C)C[C@H]3NC(=O)Cc1ccc(Cl)cn1` is reported as 11% (ligand displacement, radioligand; 10 µM).
`CCOC(=O)[C@](CC)(CCCSCCOCCOCCNC(=O)c1ccc(-c2c3ccc(=N)c(S(=O)(=O)O)c-3oc3c(S(=O)(=O)O)c(N)ccc23)c(C(=O)O)c1)NC(=O)c1ccc(C2CC2)c(Cc2ccc(F)cc2)n1` has an inhibition of 2% (ligand displacement, radioligand; 10 µM).
With `Cc1cc(Nc2nc(C[C@@]3(C(=O)O)CCN(Cc4cccc(Cl)c4F)[C@H](C)C3)cc(C)c2F)[nH]n1` the activation was -0.81% (agonist; 10 µM).
`CCc1nnc(-c2c(OC)cc(-c3cnc4cc(-c5cnn(C)c5)ccn34)cc2OC)o1` gave an inhibition of 11% (agonist radioligand, radioligand binding; 10 µM, SafetyScreen44 5-HT2B).
The response of `N[C@H](C(=O)N1CCCC1)C1CCN(c2nccc3c(-c4ncc(Cl)cc4Cl)cccc23)CC1` is reported as 4% (functional response, agonist; 10 µM).
With `COc1ccc(F)cc1S(=O)(=O)Nc1cnc2c(c1)C(=O)NCCO2` the inhibition was 14% (ligand displacement, radioligand; 10 µM).
For `CS(C)(=O)=Nc1ccc(-c2ccc(-c3nc4cc(O[C@@H]5CO[C@H]6[C@@H]5OC[C@H]6O)[nH]c4cc3F)cc2)cc1`, the inhibition was 43% (calcium signal, antagonist; 10 µM).
With `Cc1cc(-c2ccc3ccccc3c2)nnc1NCCN1CCN(C)CC1` the activity was 2% (antagonist; 10000 nM; relative to: control).
With `O[C@H]1[C@H](n2cnc3c(N[C@@H](C4CCC4)C4CC4)nc(I)nc32)[C@H]2C[C@@]2(C(F)F)[C@H]1O` the selectivity ratio was 724 fold (antagonist, calcium flux; added: 5-HT; relative to: 5-HT2C over 5-HT2B).
`O=C(O)c1ccc(-c2nc(-c3ccccc3Cl)c3sccn23)cc1` has a specific binding of 93.3% and 93.4% (radioligand binding, safety screen panel; 10 µM; relative to: control).
The inhibition of `CCN(CC)CCOc1ccc(-c2nnn(Cc3ccc(OC)cc3)c2N)cc1` is reported as 19.8% (radioligand binding; CHO-K1; 10 µM, safety profiling).
With `COc1ccccc1N1CCN(CCCCN2CCCc3ccccc3C2=O)CC1` the inhibition was 85.2% (radioligand binding; concentration not given, added: [3H]LSD).
The inhibition of `Cc1sc2c(c1C)C(c1ccc(Cl)cc1)=NC(CC(=O)OC(C)(C)C)c1nnc(C)n1-2` (centres unmarked) is reported as -1% (ligand displacement, radioligand; 1 µM).

Excerpt of the above:
`CCOC(=O)[C@](CC)(CCCSCCOCCOCCNC(=O)c1ccc(-c2c3ccc(=N)c(S(=O)(=O)O)c-3oc3c(S(=O)(=O)O)c(N)ccc23)c(C(=O)O)c1)NC(=O)c1ccc(C2CC2)c(Cc2ccc(F)cc2)n1` has an inhibition of 2% (ligand displacement, radioligand; 10 µM).
